Measured values collected from several papers.
Parts stem from different laboratories: compare values within a part only. Substitutions count along the parent as printed.

Sample 1
Target: RNA binding protein fox-1 homolog 2, RRM domain, GST-SBP tag (RBFOX2, Homo sapiens, UniProt O43251-10, residues 100-194)
Technique: RNA Bind-n-Seq
Form: RNA
Medium: in vitro
Tested at: 365 nM
Notes: natural RNA segment, single round, ends assumed
Relative to: no-protein control
Direction: higher = stronger binding
All sequences stand within: GGGAGUUCUACAGUCCGACGAUC … UGGAAUUCUCGGGUGCCAA
Construct (chain): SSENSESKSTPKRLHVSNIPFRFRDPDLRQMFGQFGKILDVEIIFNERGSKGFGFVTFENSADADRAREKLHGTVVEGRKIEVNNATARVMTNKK
Strand | RBNS enrichment (R)
ACAGACCUUGUGAUUUGGUCUGAGCUAGUUGCUGAGUUGACUGGAGCCUUAUUUGAAUGGAUCUUUGAGUUGAGAUCUUCACACUGUCAGUGAGCCCUUGGCUCAGCCCU | 0.832
AGGAGACAGAAGAGUUCUGAUGAUAGAUCUCUGCCUCAGUCUGUUGGCUGGCCUAAUCCCCAUGAUGAUUCCAGAAUAAUCUUGCAAAUUGGAUCAUGGCAGGUGCUUGU | 0.961
UUAACCUGACCCAGCAUGGAAGGAGGUGUGGGUACCUUCUCAGAAAGUCCUUAAUUUACAGUGGCCUGUAGCCUGUGGCCGUGGCCGUGGCUGUGGCCUGCUGCCUGCUC | 4.03
CAUGUCUUUGGCCAUGUAGAUUAAGUGUAGGCGUCCGGUUCAUUCUUACCUGUGUUAGGCCAUGUUAUUUUAUAGCGAAGUCAUGUUCGAUAGGGAUGGUAUGAAAUGCU | 0.325
AGAAAAUACCUGAAAAGCAACUUUAUUGCUUCAAUCUGGAUAUAAGUAGUUAUUUAUAAAUAGUUAAGAUUAAUUUAAAUGUAAAAACGUGCUUAAUUCCCUAAUAAUUU | 0.367
AAAGGGGUGUGGCAGCUCCCAUCAGGUCUGGAGGUGGUCUAUAAGCACAGUUGACAGUUGUGCAUUGGGAUGGGUGGAGAAAGACGACAAGAGAGCAGAGAAUCUGCUGA | 1.04
AGCAUAGUCAACAGCGAGCAUAAAGACUUUGUCACUUGGAGCGUUACCAGCAGAGUAAAUGUGGCCAUUGACUGGCCUAAGCAUUCUCUAAGAGUUGUGCUAGAUGGCUU | 0.457
ACUUCUCUUCCACAGUGGCCGGCCCACUCAAUCCCAGGGCCAUUGGCCUCACCCUCCCACCCCAUGUAAAUAUUACUCUGUCCUCUGGGGGGCGCUCUAGGGAGCCCCUU | 0.403
AAAACCUUAGGGCAGUGUCUACAUGGGAAACAAGUAUGUGGAAAUUGACAAUCAUUUUUACCAAAUCGUUGAGUAAUAAUAUGACUUACCUGAUAGAUAUACACAUUCAA | 0.366
UAGGUGGACUUAAAUCCCAACAGGGUCACUUGAUAAUUAUAGCCAUAGAAAUGCAGAUGCAGGUAACUGCUUUUACCCUUUACCGUCCUCAGGUGAGUCUCCUAGAUCAA | 0.348
AUAUCUGAACAUUUUUGGUUAUAACUUUUUUAUUGCCUUUGGCUGUUGAUUAGUACAAGUGCAAUUUCAAAAAGAUCUUGAAAGUAAUAUAUUUAAUCAAUUAAAAUGUU | 0.866
AGUUUUGGAUAUGGGUGGUUUUCUUUUCCGGGUUUGGUGGAAAGUAAUUUGAGAACUUUAAGGUUGUCUUUUUAACUGCUGGCAAAAUGUUGAUUUUUUAAUAUUAGAUA | 0.776

Sample 2
Target: Histone acetyltransferase KAT6A, winged helix 1, GST fusion (KAT6A, Homo sapiens, UniProt Q92794, residues 1-85)
Technique: protein binding microarray
Form: double-stranded DNA, one strand shown
Medium: in vitro
Tested at: not given
Notes: 8-mer, flanks averaged, mean of 2 arrays, mostly near background
Relative to: not given
Direction: higher = stronger binding
Residues (chain): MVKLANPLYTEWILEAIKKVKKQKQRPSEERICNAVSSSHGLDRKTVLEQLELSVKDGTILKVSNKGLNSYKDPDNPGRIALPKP
Strand | E-score
GACGAGCA | -0.25
ATGTGTCG | -0.138
AAAGAGGA | -0.299
GAGAGCAC | -0.0726
CGCTTAGC | 0.294
AGCTAAGG | -0.146
GCGAGAGA | -0.0445
CGGTCGAG | 0.114
CCTCGAGA | -0.183
ATGCACAA | -0.23
AATCATCG | -0.043
CCTTGAAA | -0.0618
GTACATCA | 0.0907
GGCGTGTA | 0.133
GAAGGACA | -0.0729
CACAAAGA | -0.248
ACAGCTCC | -0.143

Sample 3
Target: RING finger protein unkempt homolog, zinc fingers 1-6, SBP tag (UNK, Homo sapiens, UniProt Q9C0B0, residues 30-357)
UniProt Q9C0B0, sequence (30-357, looked up): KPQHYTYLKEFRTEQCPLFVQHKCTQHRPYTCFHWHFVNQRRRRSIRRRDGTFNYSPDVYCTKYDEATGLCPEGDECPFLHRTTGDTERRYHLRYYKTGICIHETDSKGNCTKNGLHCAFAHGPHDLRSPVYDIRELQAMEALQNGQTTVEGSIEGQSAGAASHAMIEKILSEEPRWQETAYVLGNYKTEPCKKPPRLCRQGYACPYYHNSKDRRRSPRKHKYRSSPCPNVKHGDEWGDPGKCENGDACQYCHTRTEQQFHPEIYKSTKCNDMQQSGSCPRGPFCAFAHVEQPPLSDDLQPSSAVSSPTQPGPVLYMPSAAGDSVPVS
Technique: RNA Bind-n-Seq
Form: RNA
Medium: in vitro
Tested at: 100 nM
Notes: RNA with constant flanks, vertebrate orthologous sites, ends assumed
Relative to: input RNA pool
Direction: higher = stronger binding
All sequences stand within: GGGAGUUCUACAGUCCGACGAUC … CAACAGAGGAUUGAGCAUCA
Strand | bound/input enrichment
AUUGGAUGCAGUGUAACACUAUCCAAGGCAGUGACUUCAGCUUUAUAUACAUAUAAAAUAUAGUUUUAAAAUUAUUGACAUUUAUUUAAACUUUUAGAUUGGAUUGUUUGCUAUUGCUCU | 1.02 ratio
AGUAGUUUUAAGCUUGUUUGCACAGUUCUUUUUUUCCAUUGGAAAUGGAAUCCAUUGCCUUAGGUCUUUUUAAAUAGUGUAUUAUUAUCUUUGGGGCUGGCUCUGUGCUUGAAAACCAGU | 3.89 ratio
UGUUUUCUUAUUUUAGGUAUCAUUGUCCAGUGCCUAAGAUCUUUUAUGUUCAGCUGACUGUAGGAAAUAAUGAAUUUUUUGGUGAAGGAAAGACUCGACAAGCGGCGAGACACAAUGCUG | 0.625 ratio
UUUUUUUUUUUGCACAUGACAGUGUUUGUAUUGAGGAUCUUCCAAGGAAGAGGGGUGCUGUAGCAGUGGUGCCUGGGUACCUGGCCCUCCAGUGUCCCACCUCCUUCACCACCCCGCUUG | 0.243 ratio
GAGCACUGCCUGUGUGUGCCCACAGCACUGAAGACAAAGCAGUAAUUCUAUAGUCACAGUAAGAUAGCUUCAGGGCAGCGUCACCAUGGUUCUCUCAUGGGCAGGUUCUGAAAAUGUACC | 0.287 ratio
UUCAGGCACAGCUAUCUGGUACUCAGCAUUCCUUACCUAACUAUUUAACGAGCGUAAGUGGAGUGUCAUUGCAGGACGCAUCCAGACAGUCACUUUUGUGCGCUCCCCUAGGAGCUCUUA | 0.435 ratio
AAAUGCCUUCUGUUCCAUUAAGAAGAACAAGUAUAGUCCCCCAGGUAUAAAACUCCUAGAUAGCUAUUUUUGAAAUGAAAAUGUUUAAAUUUUAUAAAUCAGCUCUUGCCUCUAUACAAC | 1.35 ratio
UUACUGCACUGCAAAAGCCCUGCCUCUCACGCAGCACAGUGAGGACAAACUGGUCAGCAUCAGGGCAUCACCUGCUCCUACAUUUCCAGUGGUUGUGUCAGCCUUGAACUAGUCUAGCUG | 0.292 ratio
AUCACUCUAAUUGUAAUCUGAAUAAAGUGUAACAUUGUGUAGCCUUUUUUUUGUAUAAAAUAGACAAAUAGAAAUGGUCCAAUUAGUUUCCUUUUUAAUAUGCUUAAAAUAAGCAGGUGG | 1.83 ratio
CAACUCAAUGGUUGAGGGUUCAGAACUCAAAAAGGUUCGCUCCAACUCUAGAAUUUACCAUAGGUAUUUUUUACUGGAUGCCGACAUGCAGAGCCUGAGGUGGGAACCAUCUAAAAAGGA | 0.187 ratio
UUCAUAAUCACGCUAAUCGUAAUCUGGAGACGUGUAACAUUGUGUAGCCUUUUGUAUAAAUAGACAGAUAGAAAUGGUCCGGUUAGUUUCCUUUUUAAUAUGCUUAAAAUAAGCAGGUGG | 1.79 ratio

Sample 4
Target: Sox-I, HMG box (Salpingoeca helianthica)
Technique: Spec-seq
Form: double-stranded DNA, one strand shown
Medium: in vitro
Tested at: not given
Notes: whole probe, mean of replicates
Relative to: not given
Direction: lower = stronger binding
All sequences stand within: GAGTCGTCTCGTCAGCAC … CCGTAGAGCACTCAGGTC
Construct (chain): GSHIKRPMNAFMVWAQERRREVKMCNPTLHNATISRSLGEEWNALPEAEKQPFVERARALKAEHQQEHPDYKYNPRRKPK
Strand | relative binding energy
AAGGGTT | -0.524 ln ratio
CATTCCA | 0.913 ln ratio
TACTGTT | -0.807 ln ratio
CATCCGG | 1.07 ln ratio
CGTAGTT | 0.622 ln ratio
ACTCGTT | 0.172 ln ratio
CATTAAT | 0.333 ln ratio
CATTATG | -1.14 ln ratio
CATTAGT | 0.795 ln ratio
ATATGTT | -0.379 ln ratio
CATCCGC | 1.1 ln ratio
CATAGCT | 0.375 ln ratio
TTGCGTT | 1.1 ln ratio
TCGCGTT | 0.879 ln ratio
CATATAA | 0.231 ln ratio
CATCAAG | 0.581 ln ratio
CATTTGC | 1.02 ln ratio
CTTGGTT | 0.733 ln ratio
GCCTGTT | -0.42 ln ratio
CATTGGG | 0.93 ln ratio
AAAAGTT | -1.37 ln ratio
CATACAG | -0.024 ln ratio
ATCAGTT | -0.284 ln ratio
ACCTGTT | -0.401 ln ratio
TCTAGTT | 0.056 ln ratio

Sample 5
Target: CCND3, cyclin fold, Cln2 fusion (human)
Technique: yeast growth competition, sequencing
Medium: yeast
Notes: weak parent motif
Relative to: not given
Direction: higher = stronger binding
Parent: RB1 docking peptide (human); PKPLKKLRFDIEG
Variant | normalised enrichment score
G13V | 0.105
K5L | 0.135
R8Y | 0.129
G13N | 0.0628
F9M | 0.104
L7K | 0.209
E12S | 0.165
K5R | -0.049
K5H | 0.129
I11Y | 0.0717
E12V | 0.0624
I11R | -0.0685
D10P | 0.166
P3V | -0.000349
D10I | -0.0665
P3R | 0.35
F9E | 0.0437
R8L | 0.11
P3N | 0.0641
L4K | 0.0222
P1Q | 0.125
E12Y | 0.144
E12P | 0.122
F9G | 0.24
G13M | 0.133

Excerpt of the above (sample 1):
Strand | RBNS enrichment (R)
ACUUCUCUUCCACAGUGGCCGGCCCACUCAAUCCCAGGGCCAUUGGCCUCACCCUCCCACCCCAUGUAAAUAUUACUCUGUCCUCUGGGGGGCGCUCUAGGGAGCCCCUU | 0.403
CAUGUCUUUGGCCAUGUAGAUUAAGUGUAGGCGUCCGGUUCAUUCUUACCUGUGUUAGGCCAUGUUAUUUUAUAGCGAAGUCAUGUUCGAUAGGGAUGGUAUGAAAUGCU | 0.325
AAAGGGGUGUGGCAGCUCCCAUCAGGUCUGGAGGUGGUCUAUAAGCACAGUUGACAGUUGUGCAUUGGGAUGGGUGGAGAAAGACGACAAGAGAGCAGAGAAUCUGCUGA | 1.04
AUAUCUGAACAUUUUUGGUUAUAACUUUUUUAUUGCCUUUGGCUGUUGAUUAGUACAAGUGCAAUUUCAAAAAGAUCUUGAAAGUAAUAUAUUUAAUCAAUUAAAAUGUU | 0.866
AGCAUAGUCAACAGCGAGCAUAAAGACUUUGUCACUUGGAGCGUUACCAGCAGAGUAAAUGUGGCCAUUGACUGGCCUAAGCAUUCUCUAAGAGUUGUGCUAGAUGGCUU | 0.457
AGUUUUGGAUAUGGGUGGUUUUCUUUUCCGGGUUUGGUGGAAAGUAAUUUGAGAACUUUAAGGUUGUCUUUUUAACUGCUGGCAAAAUGUUGAUUUUUUAAUAUUAGAUA | 0.776
